Assay results gathered from unrelated publications.
Lines come from different studies, so protocols differ. Numbers after ± are the reported error.
SLC10A1: Hepatic sodium/bile acid cotransporter (SLC10A1, Homo sapiens, UniProt Q14973)
UniProt Q14973, sequence (whole entry, looked up): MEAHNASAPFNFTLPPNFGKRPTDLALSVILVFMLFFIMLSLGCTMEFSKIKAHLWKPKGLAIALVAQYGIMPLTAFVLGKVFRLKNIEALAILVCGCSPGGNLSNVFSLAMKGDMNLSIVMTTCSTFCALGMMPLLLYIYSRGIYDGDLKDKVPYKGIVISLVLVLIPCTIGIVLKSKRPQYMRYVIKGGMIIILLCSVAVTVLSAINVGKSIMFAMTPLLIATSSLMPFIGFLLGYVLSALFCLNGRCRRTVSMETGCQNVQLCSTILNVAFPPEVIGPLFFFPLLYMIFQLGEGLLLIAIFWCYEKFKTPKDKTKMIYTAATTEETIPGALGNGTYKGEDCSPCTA
ESR1: Estrogen receptor (ESR1, Homo sapiens, UniProt P03372)
UniProt P03372, sequence (whole entry, looked up): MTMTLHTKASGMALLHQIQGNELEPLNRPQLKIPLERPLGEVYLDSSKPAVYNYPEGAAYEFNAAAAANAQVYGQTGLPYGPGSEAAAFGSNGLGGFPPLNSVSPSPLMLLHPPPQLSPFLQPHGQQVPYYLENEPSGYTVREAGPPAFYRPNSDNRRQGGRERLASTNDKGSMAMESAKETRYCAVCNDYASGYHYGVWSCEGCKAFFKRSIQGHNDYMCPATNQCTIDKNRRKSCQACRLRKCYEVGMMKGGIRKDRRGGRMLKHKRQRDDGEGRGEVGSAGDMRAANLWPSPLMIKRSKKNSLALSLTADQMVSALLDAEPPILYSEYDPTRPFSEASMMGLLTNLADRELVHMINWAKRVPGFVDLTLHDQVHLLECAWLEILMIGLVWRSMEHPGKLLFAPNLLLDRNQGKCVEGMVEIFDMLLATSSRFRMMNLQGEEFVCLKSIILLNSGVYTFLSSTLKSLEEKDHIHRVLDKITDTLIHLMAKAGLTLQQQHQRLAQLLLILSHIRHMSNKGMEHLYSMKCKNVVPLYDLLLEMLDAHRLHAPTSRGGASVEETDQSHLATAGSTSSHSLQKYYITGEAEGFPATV
DRD3: D(3) dopamine receptor (DRD3, Homo sapiens, UniProt P35462)
UniProt P35462, sequence (whole entry, looked up): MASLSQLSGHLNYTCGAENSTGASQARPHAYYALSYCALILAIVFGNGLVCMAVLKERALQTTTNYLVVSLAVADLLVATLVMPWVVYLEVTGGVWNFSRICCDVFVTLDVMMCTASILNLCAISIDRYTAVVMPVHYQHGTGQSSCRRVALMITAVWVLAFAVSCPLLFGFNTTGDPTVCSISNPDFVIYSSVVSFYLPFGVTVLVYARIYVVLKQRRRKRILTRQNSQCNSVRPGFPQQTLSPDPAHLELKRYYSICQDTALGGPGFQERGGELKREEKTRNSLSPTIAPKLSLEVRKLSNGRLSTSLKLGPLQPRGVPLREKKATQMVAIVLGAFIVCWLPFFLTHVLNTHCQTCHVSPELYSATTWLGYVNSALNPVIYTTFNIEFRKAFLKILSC
CDK2: Cyclin-dependent kinase 2 (CDK2, Homo sapiens, UniProt P24941)
CDK2 with cyclin A: Cyclin-dependent kinase 2, with cyclin A (CDK2, Homo sapiens, UniProt P24941)

Structure (SMILES)	tested on	assay	test system	setting	how to read	quantity	value
CCN(CC)CCNC(=O)c1ccc(N)cc1	SLC10A1	taurocholate uptake, inhibitor	NTCP-expressing HEK293	with: 10 µM taurocholate		Ki	384 ± 185 µM
Oc1ccc2c(c1)OC[C@]1(O)Cc3cc(O)c(O)cc3[C@H]21	ESR1	array formation, agonist	ERα-GFP PRL-HeLa	1 h		EC50	5.89 µM
C=CCN(CC=C)C(=O)c1c(C)[nH]c(C)c1S(=O)(=O)Nc1ccc(C(F)(F)F)c(Cl)c1	DRD3	β-arrestin recruitment, antagonist, PathHunter		with: dopamine EC80		IC50	> 100 µM
COc1cc(O)c2c(=O)cc(-c3ccc(O)c(O)c3)oc2c1	ESR1	array formation, agonist	ERα-GFP PRL-HeLa	1 h		EC50	0.934 µM
NC(=O)c1cnc2[nH]ccc2c1N[C@@H]1[C@@H]2CC3C[C@H]1C[C@@](O)(C3)C2		flow cytometry, refers to: memory T cells (CD3+ CD45RA-)	Japanese healthy subjects, peripheral blood	oral, 30 mg twice daily, day 7		change from baseline	1.93%
CC(C)[C@H](NC(=O)[C@@H](NC(=O)CCCc1cn(CC(O)CN2CCN(CC(=O)O)CCN(CC(=O)O)CCN(CC(=O)O)CC2)nn1)[C@@H](C)O)C(=O)N[C@@H](CCCNC(=N)N)C(=O)N[C@H](C(=O)N[C@@H](CO)C(=O)N[C@@H](C)C(=O)N[C@@H](CC(=O)O)C(=O)O)[C@@H](C)O (stereo partly shown)		ICP-MS, refers to: gadolinium	healthy men, urine	intravenous, 0.08 mmol/kg		percent dose excreted	117 ± 5.71%
Cc1nc(N)nc2c1C(=O)N[C@@H](c1ccc(F)cc1-c1cccc(OCCF)n1)C2		binding, radioligand competition	mouse brain homogenate	60 min, 37 °C, with: [3H]HSP990 0.5 nM		IC50	0.385 µM
CCc1ccccc1NC(=O)CSc1nnc(-c2cccc(OC)c2)n1C	CDK2	binding				Kd	> 100 µM
CC(C)C[C@H](NC(=O)C[C@H](O)[C@H](CC(C)C)NC(=O)[C@H](Cc1c[nH]cn1)NC(=O)CNC(=O)[C@@H](NC(=O)[C@H](C)NC(=O)[C@H](Cc1c[nH]c2ccccc12)NC(=O)[C@H](CCC(N)=O)NC(=O)[C@@H](Cc1ccccc1)NC(=O)COCCOCCNC(=O)CN1CCN(CC(=O)O)CCN(CC(=O)O)CCN(CC(=O)O)CC1)C(C)C)C(N)=O [lutetium-177 labelled]			female BALB/c nu/nu mice, intestines	intravenous, 50 pmol, 24 h		tissue uptake	0.014 ± 0.006 %ID/g
CNCc1ccc(-c2[nH]c3cc(F)cc4c3c2CCNC4=O)cc1			human patients	oral, 360 mg twice daily, all grades		AST/ALT increased incidence	25%
CNC(=O)c1c(C)[nH]c(C)c1S(=O)(=O)Nc1ccc(C(F)(F)F)c(Cl)c1	DRD3	β-arrestin recruitment, antagonist, PathHunter		with: dopamine EC80		IC50	> 100 µM
COc1ccc(NC(=O)CSc2nnnn2C)cc1	CDK2 with cyclin A					Kd	> 100 µM
CCC(C)n1ncn(-c2ccc(N3CCN(c4ccc(OCC5COC(Cn6cncn6)(c6ccc(Cl)cc6Cl)O5)cc4)CC3)cc2)c1=O (stereo not shown)	SLC10A1	taurocholate uptake, inhibitor	NTCP-expressing HEK293	with: 10 µM taurocholate		Ki	77.1 ± 38 µM
Cn1cc(-c2ccc(-c3cncc(Cl)c3N3CCC4(CCNC4=O)CC3)cc2)cn1	COLO 205	gene expression, microarray, refers to: APOL6 mRNA		concentration not given, 2 h	relative to: untreated cells	log2 fold change	2.09
CC(C)c1cc(C(=O)N2Cc3ccc(CN4CCN(C)CC4)cc3C2)c(O)cc1O		binding, radioligand competition	mouse brain homogenate	60 min, 37 °C, with: [3H]HSP990 0.5 nM		IC50	0.034 µM
CC(C)C[C@H](NC(=O)C[C@H](O)[C@H](CC(C)C)NC(=O)[C@H](Cc1c[nH]cn1)NC(=O)CNC(=O)[C@@H](NC(=O)[C@H](C)NC(=O)[C@H](Cc1c[nH]c2ccccc12)NC(=O)[C@H](CCC(N)=O)NC(=O)[C@@H](Cc1ccccc1)NC(=O)COCCOCCNC(=O)CCC(C(=O)O)N1CCN(CC(=O)O)CCN(CC(=O)O)CCN(CC(=O)O)CC1)C(C)C)C(N)=O (stereo partly shown) [lutetium-177 labelled]			BALB/c nu/nu mice, female, carcass incl. GI tract contents	intravenous, 50 pmol, 1 h		tissue uptake	2.7 ± 0.6 %ID
CC(=O)N=S(=O)(O)c1ccc(N/C=C2\C(=O)Nc3ccc4ncsc4c32)cc1	CDK2	average of ITC, Octet and Thermofluor		untagged protein		Kd	1.43 µM
O=c1cc(-c2ccc(O)cc2)oc2cccc(O)c12	ESR1	array formation, agonist	ERα-GFP PRL-HeLa	1 h		EC50	0.122 µM
Cc1[nH]c(C)c(S(=O)(=O)Nc2c(Cl)ccc(Cl)c2Cl)c1C(=O)N1CCC(F)(F)C1	DRD3	β-arrestin recruitment, antagonist, PathHunter		with: dopamine EC80		IC50	> 100 µM
COc1ccccc1Oc1c(NS(=O)(=O)c2ccc(C(C)(C)C)cc2)nc(-c2ncccn2)nc1OCCO	SLC10A1	taurocholate uptake, inhibitor	NTCP-expressing HEK293	with: 10 µM taurocholate		Ki	92.9 ± 14 µM

Structure (SMILES)	tested on	assay	test system	setting	how to read	quantity	value
COc1ccc2c(C)nc(Nc3nc(C)cc(O)n3)nc2c1	CDK2	binding				Kd	> 100 µM
CC(C)[C@H](NC(=O)[C@H](Cc1ccc(O)cc1)NC(=O)[C@H](Cc1ccc(O)cc1)NC(=O)[C@@H]1CCCN1C(=O)[C@H](CCC(=O)O)NC(=O)[C@H](CCC(=O)O)NC(=O)[C@H](Cc1c[nH]c2ccccc12)NC(=O)[C@@H]1CCCN1C(=O)[C@@H](NC(=O)[C@H](CCC(N)=O)NC(=O)c1ccc2c(c1)C(=O)OC21c2ccc(O)cc2Oc2cc(O)ccc21)C(C)C)C(=O)N[C@H](C(=O)N[C@@H](CCCCN)C(=O)N[C@@H](CCCCN)C(=O)N[C@@H](CO)C(=O)N[C@@H](CO)C(=O)NCC(=O)NCC(N)=O)C(C)C		refers to: total compound	human, plasma	intravenous infusion, 40 mg, 30 min		plasma concentration	288 ng/mL
Cc1[nH]c(C)c(S(=O)(=O)Nc2ccc(C3(C)CCO3)c(Cl)c2)c1C(=O)N1CCC(F)(F)C1 (stereo not shown)	DRD3	β-arrestin recruitment, antagonist, PathHunter		with: dopamine EC80		IC50	> 100 µM
COc1cc(OC)c(NC(=O)CSc2nnc(-c3ccncc3)n2C)cc1Cl	CDK2 with cyclin A					Kd	> 100 µM
COc1ccc([C@@H]2Sc3ccccc3N(CCN(C)C)C(=O)[C@@H]2OC(C)=O)cc1	SLC10A1	taurocholate uptake, inhibitor	NTCP-expressing HEK293	with: 10 µM taurocholate		Ki	460 ± 232 µM
COc1ccc(-c2ncn(S(=O)(=O)c3cc(C(F)(F)F)cc(C(F)(F)F)c3)n2)cc1		reaction with N-acetyl-lysine, HPLC-MS		pH 10.2, with: N-α-acetyl-lysine		pseudo-first-order rate constant	0.6 h⁻¹
Cc1nonc1OCCNc1cc(N2CCOCC2)ccc1[N+](=O)[O-]	CDK2	binding				Kd	> 100 µM
COC(=O)[C@@H]1CCCN1C(=O)c1c(C)[nH]c(C)c1S(=O)(=O)Nc1ccc(C(F)(F)F)c(Cl)c1	DRD3	β-arrestin recruitment, antagonist, PathHunter		with: dopamine EC80		IC50	> 100 µM
O=C(Cn1nc(-c2cccc([N+](=O)[O-])c2)c2ccccc2c1=O)NCC1CCCO1 (stereo not shown)	CDK2 with cyclin A					Kd	> 100 µM
Cc1[nH]c2cccc(C(=O)N3CCC(F)(F)C3)c2c1S(=O)(=O)Nc1ccc(C(F)(F)F)c(Cl)c1	DRD3	Go activation, antagonist, BRET		with: dopamine		IC50	> 100 µM
F[C@@H]1CCN(c2ccc(-c3ccc4sc(-c5cccnc5)cc4n3)cn2)C1		binding, [3H]compound homologous binding	Alzheimer's disease brain homogenate			Kd	0.17 ± 0.06 µM
COc1ccc(-c2oc3c(CC=C(C)C)c(O[C@@H]4O[C@H](CO)[C@@H](O)[C@H](O)[C@H]4O)cc(O)c3c(=O)c2O[C@@H]2O[C@@H](C)[C@H](O)[C@@H](O)[C@H]2O)cc1	ESR1	array formation, agonist	ERα-GFP PRL-HeLa	1 h		EC50	3.28 µM
CC[C@H](C)C(=O)O[C@H]1C[C@@H](C)C=C2C=C[C@H](C)[C@H](CC[C@@H]3C[C@@H](O)CC(=O)O3)[C@H]21	SLC10A1	taurocholate uptake, inhibitor	NTCP-expressing HEK293	with: 10 µM taurocholate		Ki	202 ± 32 µM
O=c1cc(-c2ccc(O)cc2)oc2cc(O)c([C@@H]3O[C@H](CO)[C@@H](O)[C@H](O)[C@H]3O)c(O)c12	ESR1	array formation, agonist	ERα-GFP PRL-HeLa	1 h		EC50	1.59 µM
Cc1[nH]c(C)c(S(=O)(=O)Nc2ccnc3c(C(F)(F)F)cccc23)c1C(=O)N1CCC(F)(F)C1	DRD3	Go activation, antagonist, BRET		with: dopamine		IC50	> 100 µM
CCCC(=O)Nc1cc(C2CC2)[nH]n1	CDK2	average of ITC, Octet and Thermofluor		untagged protein		Kd	3.35 µM
NC(=O)N1c2ccccc2C=Cc2ccccc21	SLC10A1	taurocholate uptake, inhibitor	NTCP-expressing HEK293	with: 10 µM taurocholate		Ki	914 ± 726 µM
O=C(O)CC[C@H](NC(=O)N[C@@H](CCCCNC(=O)[C@H](Cc1ccc2ccccc2c1)NC(=O)CCCCCNC(=O)CN1CCN(CC(=O)O)CCN(CC(=O)O)CCN(CC(=O)O)CC1)C(=O)O)C(=O)O [gallium-68 labelled]		gamma counting	mouse, 22Rv1 xenograft, heart	intravenous, 3.7 MBq, 2 h		tissue uptake	4.59 ± 2.06 %ID/g
Cc1[nH]c(C)c(S(=O)(=O)Nc2c(Cl)cc(C(F)(F)F)cc2Cl)c1C(=O)N1CCC(F)(F)C1	DRD3	β-arrestin recruitment, antagonist, PathHunter		with: dopamine EC80		IC50	> 100 µM
Cc1ccc(C)c(OCCCC(C)(C)C(=O)O)c1	SLC10A1	taurocholate uptake, inhibitor	NTCP-expressing HEK293	with: 10 µM taurocholate		Ki	30.4 ± 2.9 µM

Excerpt of the above:
Structure (SMILES)	tested on	assay	test system	setting	how to read	quantity	value
CC(C)[C@H](NC(=O)[C@H](Cc1ccc(O)cc1)NC(=O)[C@H](Cc1ccc(O)cc1)NC(=O)[C@@H]1CCCN1C(=O)[C@H](CCC(=O)O)NC(=O)[C@H](CCC(=O)O)NC(=O)[C@H](Cc1c[nH]c2ccccc12)NC(=O)[C@@H]1CCCN1C(=O)[C@@H](NC(=O)[C@H](CCC(N)=O)NC(=O)c1ccc2c(c1)C(=O)OC21c2ccc(O)cc2Oc2cc(O)ccc21)C(C)C)C(=O)N[C@H](C(=O)N[C@@H](CCCCN)C(=O)N[C@@H](CCCCN)C(=O)N[C@@H](CO)C(=O)N[C@@H](CO)C(=O)NCC(=O)NCC(N)=O)C(C)C		refers to: total compound	human, plasma	intravenous infusion, 40 mg, 30 min		plasma concentration	288 ng/mL
COc1cc(O)c2c(=O)cc(-c3ccc(O)c(O)c3)oc2c1	ESR1	array formation, agonist	ERα-GFP PRL-HeLa	1 h		EC50	0.934 µM
COc1ccc2c(C)nc(Nc3nc(C)cc(O)n3)nc2c1	CDK2	binding				Kd	> 100 µM
CC(C)C[C@H](NC(=O)C[C@H](O)[C@H](CC(C)C)NC(=O)[C@H](Cc1c[nH]cn1)NC(=O)CNC(=O)[C@@H](NC(=O)[C@H](C)NC(=O)[C@H](Cc1c[nH]c2ccccc12)NC(=O)[C@H](CCC(N)=O)NC(=O)[C@@H](Cc1ccccc1)NC(=O)COCCOCCNC(=O)CCC(C(=O)O)N1CCN(CC(=O)O)CCN(CC(=O)O)CCN(CC(=O)O)CC1)C(C)C)C(N)=O (stereo partly shown) [lutetium-177 labelled]			BALB/c nu/nu mice, female, carcass incl. GI tract contents	intravenous, 50 pmol, 1 h		tissue uptake	2.7 ± 0.6 %ID
